Published values gathered from unrelated publications.
Every numbered part comes from another study and shows a few of its results, in no order. Substitutions count along the parent as printed.

Set 1
Target: ABI1, truncated, D143A, DHFR fusion (Arabidopsis thaliana)
Method: DHFR PCA, deep sequencing
Matrix: yeast
Setting: methotrexate growth selection, single substitutions
With: (+)-ABA 0.0091 µM
Relative to: wild-type fitted maximum
Direction: higher = stronger binding
Starting sequence: PYL1, truncated, DHFR fusion (Arabidopsis thaliana); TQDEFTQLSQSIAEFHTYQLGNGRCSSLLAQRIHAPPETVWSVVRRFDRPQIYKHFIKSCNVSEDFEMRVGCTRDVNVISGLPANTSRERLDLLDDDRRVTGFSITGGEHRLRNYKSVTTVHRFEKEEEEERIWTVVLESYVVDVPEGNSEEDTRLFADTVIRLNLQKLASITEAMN
Variant	relative binding score [%]
T173L	-3.33
K116G	7.45
Y141A	0.799
S26E	-2.04
E129C	28.6
G71S	2.32
E64F	-4.97
I79T	25.2
S150R	7.63
G81N	27.4
M68T	4.63
D3G	8.14
S171W	9.39
S80M	44.7
P37H	-3.69
I133E	59.2

Set 2
Target: MAFK, bZIP domain (human)
Method: DHFR protein complementation
Matrix: yeast
Setting: single substitutions, most at no-binding floor
Relative to: wild-type JUN-FOS pair
Direction: higher = stronger binding
Starting sequence: JUN, bZIP domain (human); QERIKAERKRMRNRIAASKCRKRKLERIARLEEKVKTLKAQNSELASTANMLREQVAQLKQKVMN; partner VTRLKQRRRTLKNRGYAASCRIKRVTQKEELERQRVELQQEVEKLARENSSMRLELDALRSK
Variant	binding fitness [natural log]
M51T	-1.38
V35Q	-1.46
A46S	-1.52
E32K	-1.51
E44L	-1.44
L31S	-1.48
T37R	-1.34
L31K	-1.51
T37Y	-1.19
L52C	-1.53
V35H	-1.48
A40M	-1.48
A40T	-1.46
E32L	-1.43
L38H	-1.49
R30C	-1.31
K39Q	-1.52
L45S	-1.55
T48Y	-1.56
T37W	-1.3
Q58S	-1.55
T48H	-1.5
E44N	-1.45
L38K	-1.51
Q41W	-1.54

Set 3
Target: CCNB1, cyclin fold, Cln2 fusion (human)
Method: yeast growth competition, sequencing
Matrix: yeast
Setting: strong parent motif
Relative to: not given
Direction: higher = stronger binding
Starting sequence: E2F1 docking peptide (human); PPVKRRLDFETDH
Variant	normalised enrichment score
PPVKRRLDFCTDH [E10C]	4.56
PPVQRRLDFETDH [K4Q]	5.33
PPVTRRLDFETDH [K4T]	5.05
PPVKRRQDFETDH [L7Q]	0.184
PPVKRRLDFETSH [D12S]	4.82
PPVKRRLDRETDH [F9R]	0.429
PCVKRRLDFETDH [P2C]	5.28
PPVKRRLKFETDH [D8K]	3.75
PPAKRRLDFETDH [V3A]	2.21
PPVKRRLDFITDH [E10I]	3.72
PPVKRRLEFETDH [D8E]	5.17
PHVKRRLDFETDH [P2H]	4.48
PPVKRRLDFEQDH [T11Q]	5.13
PFVKRRLDFETDH [P2F]	3.6
PPVKRRLDFATDH [E10A]	4.55
PPVKRRLDFETRH [D12R]	4.41
PPVKRRLDFECDH [T11C]	5.12
PPVKRRRDFETDH [L7R]	0.392
PPVKRRLDFETLH [D12L]	4.6
PPSKRRLDFETDH [V3S]	0.736

Set 4
Target: RNA binding protein fox-1 homolog 2, RRM domain, GST-SBP tag (RBFOX2, Homo sapiens, UniProt O43251-10, residues 100-194)
Method: RNA Bind-n-Seq
Form: RNA
Matrix: in vitro
Concentration: 365 nM
Setting: natural RNA segment, single round, ends assumed
Relative to: no-protein control
Direction: higher = stronger binding
Residues (chain): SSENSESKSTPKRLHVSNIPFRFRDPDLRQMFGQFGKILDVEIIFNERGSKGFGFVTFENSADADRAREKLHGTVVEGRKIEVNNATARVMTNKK
Oligonucleotide	RBNS enrichment (R)
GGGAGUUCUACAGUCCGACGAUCAGUUCACUGUUGUACACAGUCUGUUUUCUAUUUGUUAAGAAAAACUACAGCAUCAUUGCAUAAUUCUUGAUGGUAAUAAAUUUGAAUAAUCAGAUUUCUUACAAACCAGGUGGAAUUCUCGGGUGCCAA	1.51
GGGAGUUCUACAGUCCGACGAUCAGGAAAGGGGAAUUCUGUGAUGGCAAAUGAAAAAAAUGUUAACAUUUGGUAGACAUGUGCUUUGACAUAGCGUGAGCAGCACAUUACUAAAGCAAUUACAUGCAUGUUGCUGGAAUUCUCGGGUGCCAA	7.14
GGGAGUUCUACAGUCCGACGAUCGGGGGGCAGAAAGGAGAUAAUCUCAAUGUGUUCUUUCCUGUAUGCCUUGGCUCUAACUCUGCUGCUCUGGUCUCCCAGAGCCUCUAGGGGCAGGGGAGUGCUCCACAAGGUGGAAUUCUCGGGUGCCAA	0.244
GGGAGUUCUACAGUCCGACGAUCACACGAUGAUGUGGUCUGCUUGCUCUCUGCUUAGACAGGCUUUAAGACCAAUUGGAUUUUCAUGGAGGCCAGGACAGAGAGUGGUAAUUGAUGGCUUGUGUACAGACAAGUGGAAUUCUCGGGUGCCAA	1.18
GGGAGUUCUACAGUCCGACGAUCCAUGCCGACCACAAAGGUGUCUGCGGAAACUCGAGGACAUUCACCACGAUGAUUUUCCUCUCUUUGAUGUACUUCAAGUGCAACUCAAAACUAUAUCUGCAGGGAUGAAUUGGAAUUCUCGGGUGCCAA	0.24
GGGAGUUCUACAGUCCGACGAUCUGACAGUAUCCCUUAACCUGCCACCGGUUUCCACCUUUCAACCCCCUGGUCUUAUAAGGGGAGGAGAGUUCAGCCCAGCACCAUAAUGCUUUAAAAAAAAAAAUUUUUUUUGGAAUUCUCGGGUGCCAA	0.635
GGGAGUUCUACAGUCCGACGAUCUUAUUUUCCUCCACCCCACUUACUGUGAUGGGGCAAGGGAAGAACCCAGUCUUGUCCCCUGAAUUUUAUCUGUGUGCUGGGUGGCCUGGCUGAUGCAGAGGCCUGCUAAGUGGAAUUCUCGGGUGCCAA	0.543
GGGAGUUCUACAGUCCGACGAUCCUUCUUAUCCCCAUGCACAGAAACGCUCAGGGUCCCCACGUGCCUGUUGUCCUCCCCUCUAGUCCUUUGUUCCCUUUCUGAGCAUGUGGCCCCUCCCCCGGCUGUGAGGGUGGAAUUCUCGGGUGCCAA	6.22

Set 5
Target: PABPC1L2, full length, GST fusion (mouse, UniProt A0ABA7IW68)
Method: RNAcompete
Form: RNA
Matrix: in vitro
Concentration: 20 nM
Setting: 7-mer, probes averaged, single round
Relative to: mean of 7-mers
Direction: higher = stronger binding
Construct (chain): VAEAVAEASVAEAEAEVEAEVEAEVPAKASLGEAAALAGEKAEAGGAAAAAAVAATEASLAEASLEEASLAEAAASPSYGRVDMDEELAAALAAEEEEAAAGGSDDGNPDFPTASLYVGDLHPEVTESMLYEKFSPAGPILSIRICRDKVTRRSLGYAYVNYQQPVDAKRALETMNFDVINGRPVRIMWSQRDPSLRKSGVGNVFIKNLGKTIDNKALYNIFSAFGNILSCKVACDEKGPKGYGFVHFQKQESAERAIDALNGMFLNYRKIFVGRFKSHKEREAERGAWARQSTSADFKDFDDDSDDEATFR
Oligonucleotide	7-mer Z-score
CUUCAUU	-0.284
CGGAAAG	0.102
UAACAUA	0.0207
UGUGUUG	-0.369
GCUAACC	-0.159
GUGGCCU	0.0932
UAGGGUU	-0.202
GUCCCCG	-0.387
UUCCGUG	-0.338
UUUUCGC	-0.376
AUCCGAG	-0.0844
AAUCACA	0.184
CGUGGUA	-0.079
AGGAUAU	-0.101
CGGGCAC	0.0261
GAUUCUA	-0.219
CUGGUUU	-0.407
GAUUACA	0.0569
GACCCUA	-0.171
GAACCAA	0.169
CGUUGAA	-0.0881
GCACCUG	-0.13
AGCUCUA	-0.0663
AAGCUAG	0.187

Excerpt of the above (set 5):
Oligonucleotide	7-mer Z-score
UGUGUUG	-0.369
UUUUCGC	-0.376
GACCCUA	-0.171
CGUGGUA	-0.079
UUCCGUG	-0.338
CGUUGAA	-0.0881
GAUUCUA	-0.219
CUGGUUU	-0.407
